Results from different studies.
Every numbered part comes from another study and shows a few of its results, in no order.
UniProt P51812, sequence (whole entry, looked up): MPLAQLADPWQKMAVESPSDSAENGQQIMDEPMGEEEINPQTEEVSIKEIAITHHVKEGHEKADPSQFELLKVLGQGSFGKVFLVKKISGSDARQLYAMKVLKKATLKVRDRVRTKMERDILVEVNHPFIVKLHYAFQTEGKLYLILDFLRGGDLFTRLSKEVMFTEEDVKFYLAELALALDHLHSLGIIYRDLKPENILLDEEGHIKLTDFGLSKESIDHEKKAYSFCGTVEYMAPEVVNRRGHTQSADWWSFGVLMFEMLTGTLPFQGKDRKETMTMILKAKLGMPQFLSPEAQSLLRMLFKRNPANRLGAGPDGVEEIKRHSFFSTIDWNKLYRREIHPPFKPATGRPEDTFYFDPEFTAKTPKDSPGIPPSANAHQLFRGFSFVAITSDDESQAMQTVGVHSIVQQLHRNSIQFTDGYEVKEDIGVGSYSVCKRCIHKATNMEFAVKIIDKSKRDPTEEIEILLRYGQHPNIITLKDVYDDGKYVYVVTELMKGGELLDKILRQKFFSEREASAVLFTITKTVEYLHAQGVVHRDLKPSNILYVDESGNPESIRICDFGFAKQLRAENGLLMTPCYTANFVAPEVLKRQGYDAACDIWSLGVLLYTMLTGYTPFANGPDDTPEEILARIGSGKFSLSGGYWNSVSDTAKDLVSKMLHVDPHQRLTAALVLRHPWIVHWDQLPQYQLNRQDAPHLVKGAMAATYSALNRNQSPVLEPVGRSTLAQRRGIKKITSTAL
UniProt O60285, sequence (whole entry, looked up): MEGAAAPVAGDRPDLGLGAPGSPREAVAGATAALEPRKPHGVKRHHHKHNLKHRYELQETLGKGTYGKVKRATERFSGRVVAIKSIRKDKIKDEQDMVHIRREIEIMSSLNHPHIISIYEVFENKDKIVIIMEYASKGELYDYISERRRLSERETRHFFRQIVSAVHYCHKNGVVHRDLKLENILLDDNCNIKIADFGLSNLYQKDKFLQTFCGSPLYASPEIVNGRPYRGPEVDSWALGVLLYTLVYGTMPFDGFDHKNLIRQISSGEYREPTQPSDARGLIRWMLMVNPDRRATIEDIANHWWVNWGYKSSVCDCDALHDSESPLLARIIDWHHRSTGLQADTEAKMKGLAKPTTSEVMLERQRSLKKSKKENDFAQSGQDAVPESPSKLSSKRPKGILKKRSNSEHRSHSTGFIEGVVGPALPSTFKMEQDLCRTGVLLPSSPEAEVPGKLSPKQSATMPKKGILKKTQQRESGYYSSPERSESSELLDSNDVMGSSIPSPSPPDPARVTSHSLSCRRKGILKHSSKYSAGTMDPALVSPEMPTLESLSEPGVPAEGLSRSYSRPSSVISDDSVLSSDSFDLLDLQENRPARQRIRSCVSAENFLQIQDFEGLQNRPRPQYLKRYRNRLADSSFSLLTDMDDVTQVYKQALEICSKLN
UniProt P21860, sequence (whole entry, looked up): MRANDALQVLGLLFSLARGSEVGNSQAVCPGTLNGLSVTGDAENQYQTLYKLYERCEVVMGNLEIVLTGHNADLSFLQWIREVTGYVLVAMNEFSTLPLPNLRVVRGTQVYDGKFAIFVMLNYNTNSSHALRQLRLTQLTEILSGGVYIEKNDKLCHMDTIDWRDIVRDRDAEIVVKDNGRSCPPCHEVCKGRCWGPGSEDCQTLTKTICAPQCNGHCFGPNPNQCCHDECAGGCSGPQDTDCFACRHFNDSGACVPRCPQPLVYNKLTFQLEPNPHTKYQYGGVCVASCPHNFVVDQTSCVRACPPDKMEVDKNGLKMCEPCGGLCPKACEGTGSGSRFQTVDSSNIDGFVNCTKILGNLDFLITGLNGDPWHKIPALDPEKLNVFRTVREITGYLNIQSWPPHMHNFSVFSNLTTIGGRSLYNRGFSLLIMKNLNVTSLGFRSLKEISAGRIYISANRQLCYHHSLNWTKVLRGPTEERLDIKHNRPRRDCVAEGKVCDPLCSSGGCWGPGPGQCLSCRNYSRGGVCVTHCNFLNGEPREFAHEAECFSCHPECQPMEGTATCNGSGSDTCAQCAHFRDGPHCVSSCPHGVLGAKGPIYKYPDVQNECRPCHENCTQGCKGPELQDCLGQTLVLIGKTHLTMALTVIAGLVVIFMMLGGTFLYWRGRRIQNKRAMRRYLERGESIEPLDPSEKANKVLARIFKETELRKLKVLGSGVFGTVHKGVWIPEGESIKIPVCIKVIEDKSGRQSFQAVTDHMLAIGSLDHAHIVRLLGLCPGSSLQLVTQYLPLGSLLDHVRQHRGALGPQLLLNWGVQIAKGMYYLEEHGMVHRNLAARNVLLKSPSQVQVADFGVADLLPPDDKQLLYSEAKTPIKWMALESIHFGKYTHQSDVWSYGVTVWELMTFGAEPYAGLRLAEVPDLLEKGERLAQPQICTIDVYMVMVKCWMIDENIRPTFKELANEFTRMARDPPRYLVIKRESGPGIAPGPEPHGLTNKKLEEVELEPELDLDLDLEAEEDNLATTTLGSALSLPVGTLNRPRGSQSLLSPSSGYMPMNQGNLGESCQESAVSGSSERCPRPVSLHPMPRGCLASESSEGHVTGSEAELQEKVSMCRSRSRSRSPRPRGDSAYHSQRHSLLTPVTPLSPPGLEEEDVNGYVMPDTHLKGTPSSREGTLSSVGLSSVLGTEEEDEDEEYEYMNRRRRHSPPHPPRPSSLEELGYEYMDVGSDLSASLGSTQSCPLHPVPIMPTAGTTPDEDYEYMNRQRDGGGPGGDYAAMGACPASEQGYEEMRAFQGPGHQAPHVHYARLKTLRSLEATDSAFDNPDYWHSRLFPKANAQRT
UniProt P61075, sequence (whole entry, looked up): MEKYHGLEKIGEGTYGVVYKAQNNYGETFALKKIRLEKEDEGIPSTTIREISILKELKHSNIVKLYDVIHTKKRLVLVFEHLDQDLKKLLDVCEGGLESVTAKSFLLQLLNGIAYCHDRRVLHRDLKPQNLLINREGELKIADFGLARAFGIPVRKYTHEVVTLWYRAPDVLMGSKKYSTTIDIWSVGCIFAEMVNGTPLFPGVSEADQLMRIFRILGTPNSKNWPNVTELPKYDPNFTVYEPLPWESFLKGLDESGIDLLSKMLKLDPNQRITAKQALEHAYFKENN
UniProt Q9NQU5, sequence (whole entry, looked up): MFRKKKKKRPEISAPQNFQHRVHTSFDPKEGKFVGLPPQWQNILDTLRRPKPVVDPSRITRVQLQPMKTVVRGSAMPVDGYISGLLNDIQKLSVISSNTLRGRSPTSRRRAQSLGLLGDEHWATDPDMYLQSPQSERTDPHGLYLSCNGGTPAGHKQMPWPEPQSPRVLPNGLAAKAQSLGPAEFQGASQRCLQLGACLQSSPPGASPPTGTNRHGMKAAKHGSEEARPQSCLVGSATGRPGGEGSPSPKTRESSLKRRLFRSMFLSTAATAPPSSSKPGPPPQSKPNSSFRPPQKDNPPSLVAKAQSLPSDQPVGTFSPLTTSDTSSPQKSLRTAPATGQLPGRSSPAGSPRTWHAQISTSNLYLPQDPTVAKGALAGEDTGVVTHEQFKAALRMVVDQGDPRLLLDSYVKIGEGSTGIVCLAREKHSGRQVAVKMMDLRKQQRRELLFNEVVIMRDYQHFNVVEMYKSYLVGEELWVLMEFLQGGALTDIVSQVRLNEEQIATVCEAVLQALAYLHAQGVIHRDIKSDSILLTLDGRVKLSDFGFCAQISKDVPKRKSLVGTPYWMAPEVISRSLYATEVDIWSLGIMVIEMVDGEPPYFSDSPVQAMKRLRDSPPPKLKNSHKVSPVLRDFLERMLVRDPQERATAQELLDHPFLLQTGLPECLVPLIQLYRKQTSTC

Set 1 — effect on: cell-free assay; technique: competition with immobilised ligand; tested at: 1 µM
Compound: CN1CCN(c2cnc3c(C4CCN(C(=O)c5ccc(OC(F)(F)F)cc5N)CC4)ncnc3c2)CC1
| target | remaining binding [%] |
| --- | --- |
| ERBB3 (Homo sapiens, UniProt P21860) | 84 |
| SGK3 (Homo sapiens, UniProt Q96BR1) | 100 |
| Tyrosine-protein kinase ABL1, non-phosphorylated (ABL1, Homo sapiens, UniProt P00519, H396P) | 76 |
| Ribosomal protein S6 kinase alpha-3, N-terminal kinase domain (RPS6KA3, Homo sapiens, UniProt P51812) | 85 |
| RIPK1 (Homo sapiens, UniProt Q13546) | 100 |

Set 2 — effect on: enzyme activity; mode: inhibitor; tested at: 1 µM
Compound: CC#CC(=O)N1CCC[C@H]1c1nc(-c2ccc(C(=O)Nc3ccccn3)cc2)c2c(N)nccn12
| target | inhibition |
| --- | --- |
| CRK2 (Plasmodium falciparum, UniProt P61075) | 3% |
| BUB1 (Homo sapiens, UniProt O43683) | 11% |
| NUAK1 (Homo sapiens, UniProt O60285) | 0% |
| MAP3K11 (Homo sapiens, UniProt Q16584) | 0% |
| FLT3 (Homo sapiens, UniProt P36888, K663Q) | 4% |
| GAK (Homo sapiens, UniProt O14976) | 0% |
| PAK6 (Homo sapiens, UniProt Q9NQU5) | 31% |

Set 3 — organism: Sarcocystis neurona; effect on: parasite growth; tested at: 10 µM; time: 96 h; notes: second screen; relative to: untreated
| Compound | log2 fold change |
| --- | --- |
| Oc1ccc(/C=C/c2cc(O)cc(O)c2)cc1 | 0.2 |
| C#C[C@]1(O)CC[C@H]2[C@@H]3CCc4cc(O)ccc4[C@H]3CC[C@@]21C | 0.83 |
| Cc1cnc(C(=O)NCCc2ccc(S(=O)(=O)NC(=O)NC3CCCCC3)cc2)cn1 | 0.0657 |
| CC(C)[C@H]1CC[C@H](C(=O)N[C@H](Cc2ccccc2)C(=O)O)CC1 | -0.09 |
| CC(Oc1c(Cl)cccc1Cl)C1=NCCN1 (stereo not drawn) | 0.09 |
| CC(=O)CC(c1ccccc1)c1c(O)c2ccccc2oc1=O (stereo not drawn) | 0.3 |
| OCc1cc(C(O)CNCCCCCCOCCCCc2ccccc2)ccc1O (stereo not drawn) | -0.42 |
| CCC(=O)O[C@]1(C(=O)CCl)[C@@H](C)C[C@H]2[C@@H]3CCC4=CC(=O)C=C[C@]4(C)[C@@]3(F)[C@@H](O)C[C@@]21C | 0.12 |

Set 4 — effect on: enzyme activity; mode: inhibitor; tested at: 0.5 µM; relative to: control
Target: PAS domain-containing serine/threonine-protein kinase (PASK, Homo sapiens, UniProt Q96RG2)
UniProt Q96RG2, sequence (whole entry, looked up): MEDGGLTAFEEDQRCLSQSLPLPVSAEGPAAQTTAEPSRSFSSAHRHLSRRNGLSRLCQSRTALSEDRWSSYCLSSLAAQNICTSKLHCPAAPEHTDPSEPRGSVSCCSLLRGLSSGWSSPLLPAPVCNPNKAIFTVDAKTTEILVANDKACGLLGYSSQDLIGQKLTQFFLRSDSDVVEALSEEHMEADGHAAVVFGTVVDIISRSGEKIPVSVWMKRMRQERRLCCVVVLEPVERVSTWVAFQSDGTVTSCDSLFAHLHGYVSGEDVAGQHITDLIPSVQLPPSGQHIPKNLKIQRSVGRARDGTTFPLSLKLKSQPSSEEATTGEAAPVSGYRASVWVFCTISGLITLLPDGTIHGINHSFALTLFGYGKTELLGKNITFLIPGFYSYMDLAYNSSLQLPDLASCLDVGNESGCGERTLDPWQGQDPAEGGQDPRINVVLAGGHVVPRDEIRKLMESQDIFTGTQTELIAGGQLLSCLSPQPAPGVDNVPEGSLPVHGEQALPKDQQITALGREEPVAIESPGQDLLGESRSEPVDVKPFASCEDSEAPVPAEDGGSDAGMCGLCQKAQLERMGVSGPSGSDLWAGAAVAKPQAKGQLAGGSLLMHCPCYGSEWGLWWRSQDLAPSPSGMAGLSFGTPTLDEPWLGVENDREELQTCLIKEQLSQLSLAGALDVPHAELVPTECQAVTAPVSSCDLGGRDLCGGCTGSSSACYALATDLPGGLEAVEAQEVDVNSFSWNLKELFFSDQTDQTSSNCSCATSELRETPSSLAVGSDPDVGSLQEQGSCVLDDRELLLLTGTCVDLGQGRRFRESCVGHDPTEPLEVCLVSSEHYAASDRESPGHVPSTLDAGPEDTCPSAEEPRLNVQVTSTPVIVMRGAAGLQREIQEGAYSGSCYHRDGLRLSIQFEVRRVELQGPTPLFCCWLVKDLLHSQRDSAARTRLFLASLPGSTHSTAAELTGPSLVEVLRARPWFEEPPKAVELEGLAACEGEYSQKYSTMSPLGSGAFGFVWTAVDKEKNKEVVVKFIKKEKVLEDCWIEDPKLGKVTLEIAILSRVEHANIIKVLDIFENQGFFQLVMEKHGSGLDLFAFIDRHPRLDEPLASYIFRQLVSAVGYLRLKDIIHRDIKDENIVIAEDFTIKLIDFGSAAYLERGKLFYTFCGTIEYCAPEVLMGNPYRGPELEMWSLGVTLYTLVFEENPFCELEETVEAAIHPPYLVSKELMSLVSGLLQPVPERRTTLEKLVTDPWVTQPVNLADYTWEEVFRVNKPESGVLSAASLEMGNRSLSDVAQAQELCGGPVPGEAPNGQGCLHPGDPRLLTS
| Compound | remaining activity [%] |
| --- | --- |
| COc1cc2ncnc(Nc3ccc(F)c(Cl)c3)c2cc1OCCCN1CCOCC1 | 97.9 |
| O=c1c2ccccc2[nH]c(=S)n1CCN1CCC(=C(c2ccc(F)cc2)c2ccc(F)cc2)CC1 | 99 |
| CN(C)c1ccc(C=C2C(=O)Nc3ccccc32)cc1 | 95 |
| Cn1c2ccccc2c2c3c(c4c5ccccc5n(CCC#N)c4c21)CNC3=O | 84.3 |
| NCCNc1ncc(C(N)=O)c(Nc2cccc(C(F)(F)F)c2)n1 | 75.1 |
| OCC(O)CCON=C1C(c2c(O)[nH]c3ccccc23)=Nc2ccccc21 (stereo not drawn) | 89.8 |
| Cc1cccc(-c2[nH]c(C(C)(C)C)nc2-c2ccc3c(c2)OCO3)n1 | 78.9 |
| O=C(O)c1ccc2c3c1cccc3c(=O)n1c3ccccc3nc21 | 106 |
| Cc1ccc(Nc2nccc(N(C)c3ccc4c(C)n(C)nc4c3)n2)cc1S(N)(=O)=O | 101 |
| COc1ccc(OC)c2c(=S)c3ccccc3[nH]c12 | 90.1 |
| O=C1NC(=O)C(c2cn(CCCO)c3ncccc23)=C1c1cnccn1 | 97.1 |
| COc1ccc(CNC(=O)Nc2ncc([N+](=O)[O-])s2)cc1 | 106 |
| COc1ccc(C(=O)Nc2sc3c(c2C(N)=O)CCCC3)cc1OC | 101 |
| COc1cc2nccc(Oc3ccc(NC(=S)NC(=O)c4ccccc4C)cc3)c2cc1OC | 93.6 |
| O=S(=O)(c1cccc2cnccc12)N1CCCNCC1 | 97.1 |
| Nc1ncnc2n[nH]c(Nc3ccc(F)cc3)c12 | 91.8 |
